Assay results collected from several papers.
Numbered parts are unrelated; each lists some results of a single study. Positions count from the first letter of the parent shown.

Study 1 — technique: RNA Bind-n-Seq; form: RNA; medium: in vitro; tested at: 365 nM; baseline: no-protein control; direction: higher = stronger binding
Target: RNA binding protein fox-1 homolog 2, RRM domain, GST-SBP tag (RBFOX2, Homo sapiens, UniProt O43251-10, residues 100-194)
Setting: natural RNA segment, single round, ends assumed
Constant ends, left off below: GGGAGUUCUACAGUCCGACGAUC … UGGAAUUCUCGGGUGCCAA
Target sequence (chain): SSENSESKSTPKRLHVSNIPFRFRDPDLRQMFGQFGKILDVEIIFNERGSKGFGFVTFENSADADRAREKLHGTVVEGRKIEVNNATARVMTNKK
Strand | RBNS enrichment (R)
UGAUGGAGAGCCAGCCAGUGGGGCUGUCAGCAGUGGGGGGCUUUUUAAAAGAAAACUAUUUUGAUGAAUAUAUUUAAAAAACCUUUUUUUAUUGUGGAGCAUAGGAAUUG | 0.774
CUCGGUGAAGCCUUUUCCCAGAGCAUAUGUCUCCGGCAGGCAGUGUGGGUUCUUGCCAAGCAUCAGAACCAGUCUCCAGGGCCUCCCGACGCCGAUCCAUAGUACUGUAC | 0.31
GCCUCCAUCACCACAACCACACCGCUUCGCUCUGCCAUCCACCCACCGCAGCAGCAUCUUCAAGAAUAAAGCAAUAUAGUUUACUACAUUUUUUUUUAAAAUUGAAGGUC | 0.849
AGGAAAUGGAAUUGGUCAGGAUAGAUGGUGUGAAACUGAUAAGAGGUUUUGGAUGUGAAAAAGAGUUUCCAAAAGAAUGGUGUCUGGGAGUUUGAAUGUGAUGAUUAAAA | 11.3
AUCUUGCCUGGCCGAGUGUUUGUGCUAUGUGAGCAUGAGGCUUUAUUUGACUGUGGAAGAAGACACUAAGAGCCAGCAGAAGGGCCUGAGCUGCCUCAUUAGCCUGGCUU | 0.854
AAGACUCUGUUCUGGGUGUGGGCCAGGAGGUCUUAGAAAGAAGCUGGCUGUCAGUGACCAUGUGGGCAUUGAGGCUGGUCCCAGAGAUGCUCGAAAGUCAGUGAAAGCUA | 0.439
AGCCAAAGAAAAGCCACAUCUAAAAAGCUACUACUAAAAGCCAGAAAGAAAAGUGGAUUUGAACUCAGUGUCACAGACUCUUCUGAGUGUUUUAGGGUCACAGCUAGUGU | 0.408
AGUGGGACUUCCGCGUCUCUCCCUAGUCUUAUCCCCUUUGGAUGAUGGCAGAAACUUCAUGAACCAGCCCUUUCUCAGAGCCAGUGAUGUGAGUGUAUCAGAAUGCCAGG | 0.194
GGCUUCCUUCAAACUAUUGUUUGUAUACUAUAUUUGCUUGGCAAGGGGAGGUAGCUUUCUGUAUAAGACUCUGAUUCUAAAGAGAUGAAGACUUGUGUGAAUGUACAAAG | 0.85
AUGUUUUCAGUUGGUUUGUAUUCUGUAGCUCAGUAGCUGCUAAUAAAGUUAAAGAUCCUGUGUCCUGCUUUCUCUACUGUUUGGUCAGAUGAUGAAGUAUAAAUCUGGAU | 0.392
GAAUUUAUGCUUUCUCAAGAUGUUGAACAUGAGCGUCUCUUUGACCUCAUUCAGAAAAUGUUGGAGUAUGAUCCAGCCAAAAGAAUUACUCUCAGAGAAGCCUUAAAGCA | 1.07
AUAACAUUUUAGAAGCAAAGAACAAGCCUUUCUAAAUCUUCAGCUGUCAGCGUUUGGCAUUUAAUCUUUUUGCCAUUUUAAUUUGCCUACUUACAUUGUGUUCAUAUAUU | 0.607

Study 2 — technique: protein binding microarray; form: double-stranded DNA, one strand shown; medium: in vitro; tested at: not given; baseline: not given; direction: higher = stronger binding
Target: Histone acetyltransferase KAT6A, winged helix 2, GST fusion (KAT6A, Homo sapiens, UniProt Q92794, residues 85-181)
Setting: 8-mer, flanks averaged, mean of 2 arrays, mostly near background
Residues (chain): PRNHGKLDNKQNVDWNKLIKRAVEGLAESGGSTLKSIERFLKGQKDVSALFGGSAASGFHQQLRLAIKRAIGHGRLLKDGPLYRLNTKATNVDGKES
Strand | E-score
CCAATCTA | 0.0479
GATGCGGA | 0.0205
CTATCGAA | -0.0501
ACTGAGTA | -0.157
CAGCACAA | 0.161
ACTCTGAA | 0.0618
CTGCCTGA | 0.059
AAATGCAC | -0.0371
ACTAGCAA | 0.00788
GTCATATA | 0.0209
GAGACCTA | -0.0563
CGCGCACC | 0.206
ACCGTACC | -0.24
GCTCCCCA | -0.242
TAATTCGA | -0.0229
ACCTACTC | -0.174
CAGGGCAG | 0.168
GTTACGGA | -0.0243
AAGGCTTA | -0.226
GGCTGCGA | 0.0823
ACTGGTGC | 0.0515
AGAAGCGG | 0.0139
CCTTGCGA | 0.0101
ATGTGAAC | -0.172
CTTGGTTA | 0.0304

Study 3 — target: CCNA2, cyclin fold, Cln2 fusion (human); technique: yeast growth competition, sequencing; medium: yeast; setting: strong parent motif; baseline: not given; direction: higher = stronger binding
Starting sequence: GMNC docking peptide (human); KNAKRNLSSEFAN
Change | normalised enrichment score
N6W | 0.654
F11T | 0.77
F11W | 2.65
E10A | 3.41
N6G | 1.63
N6D | 3.99
N2C | 5.04
E10W | 2.36
R5M | 0.639
A12L | 4.3
R5P | -0.164
N6I | 0.652
E10M | 3.32
N2P | 5.67
F11E | 0.163
R5F | 0.123
N2I | 4.08
S9G | 4.27
A12H | 4.71
R5E | 0.345
S8W | 4.32
A3F | 5.39
N2V | 4.3
S9A | 5.71
S8D | 4.87

Study 4 — technique: DHFR PCA, deep sequencing; medium: yeast; with: (+)-ABA 58 µM; baseline: wild-type fitted maximum; direction: higher = stronger binding
Target: ABI1, truncated, D143A, DHFR fusion (Arabidopsis thaliana)
Setting: methotrexate growth selection, single substitutions
Starting sequence: PYL1, truncated, DHFR fusion (Arabidopsis thaliana); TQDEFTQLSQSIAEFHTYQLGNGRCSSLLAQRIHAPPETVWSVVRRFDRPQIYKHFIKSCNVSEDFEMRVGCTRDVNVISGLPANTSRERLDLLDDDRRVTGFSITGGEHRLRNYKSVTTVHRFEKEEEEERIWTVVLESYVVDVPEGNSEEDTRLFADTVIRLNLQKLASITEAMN; partner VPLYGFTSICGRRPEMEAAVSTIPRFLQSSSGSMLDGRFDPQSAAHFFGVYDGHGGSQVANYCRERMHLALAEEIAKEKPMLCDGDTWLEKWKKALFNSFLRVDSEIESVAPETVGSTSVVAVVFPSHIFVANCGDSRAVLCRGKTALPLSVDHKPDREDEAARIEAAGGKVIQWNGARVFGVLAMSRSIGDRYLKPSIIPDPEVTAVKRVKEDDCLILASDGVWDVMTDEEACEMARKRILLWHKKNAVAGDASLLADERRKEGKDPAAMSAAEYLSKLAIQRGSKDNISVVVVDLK
Change | relative binding score
V40T | 15.4%
I133F | 82.6%
G107H | 61.6%
D96P | 27.7%
T6F | 85.9%
L8Q | 69.2%
Q2M | 86.2%
N85C | 87%
T119R | 5.98%
Y53S | 10.9%

Study 5 — technique: RNA Bind-n-Seq; form: RNA; medium: in vitro; tested at: not given; setting: RNA with constant flanks, ends assumed; baseline: input RNA pool; direction: higher = stronger binding
Target: RING finger protein unkempt homolog, zinc fingers 1-6, GST-SBP tag (UNK, Homo sapiens, UniProt Q9C0B0, residues 30-357)
UniProt Q9C0B0, sequence (30-357, looked up): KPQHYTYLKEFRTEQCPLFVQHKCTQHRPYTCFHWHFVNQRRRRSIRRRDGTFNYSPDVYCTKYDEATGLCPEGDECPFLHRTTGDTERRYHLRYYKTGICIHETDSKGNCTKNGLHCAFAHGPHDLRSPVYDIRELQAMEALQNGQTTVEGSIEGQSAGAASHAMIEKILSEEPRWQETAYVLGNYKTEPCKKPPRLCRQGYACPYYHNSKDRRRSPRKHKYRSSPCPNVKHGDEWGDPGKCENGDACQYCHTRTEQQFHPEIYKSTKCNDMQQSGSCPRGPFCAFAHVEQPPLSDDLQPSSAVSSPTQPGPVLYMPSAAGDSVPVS
Constant ends, left off below: GGGAGUUCUACAGUCCGACGAUC … CAACAGAGGAUUGAGCAUCA
Strand | bound/input enrichment [ratio]
UCACAAGCACAAAUCUUUCCCACUAGCCAUUUAAUAAGUUAAAAAAAGAUACACAAACCUACCCGUCUUGAACAAACUGUCAUACGUAUGGGACCUACACUUAAUCUCUAUGCUUUACAC | 15.8
CCUACUGUAAACAACUCAGGGCAGUAUUCUCGAUAUCCUUACAGUAACCUAAAUCAGGGAUCCGUUAACAGUACAGGGAUGAAUCAAAAUUUAGGCCUUACAAACAGUACUCCAAUGAAU | 0.478
AUAUGCCUGUGGCUGCUGGACACAUACCCAUAUAACCCCCCUAUCUGUUUUGUUAAGCCUACCCGUUCAAUGACUAUUAAAACAGGAAAGCAUGUGGAUGCAAAUGGGAAAAUCUACCUA | 0.17
GCUGCGCAAAUGAAUGGUAAACCAGAAUCCAGUUCUGUGGUUCGAACUAGGAGCAACCGUGCCGCUGCCGAUCCAGUUGUCACCGAGCAGCCCUCUACAUCAUCAGCCACAAAAGCUUUU | 0.185
AAGAAUAUUCGCUUUCCACUGAUGACACCACAGGAUCUCAUCAACUAUGUGCAGACAGCCGAUUUCAUGAGAACAGACAAUACCUGUGUGAAUUUACUUUUGGAAGCAAGCAAUUACCAA | 0.191
GCCGGAGAUGCCCUGGAUGGCGGCUUUCAGGCGCGGUGUGAGAAGAGCCCUUUCGACCAGCCCGCUUUUAUCGAAGAGCUGUUUUCGCUGAUGGUUGUCAAUCGACUGACCGAAGAGCUC | 0.178
GAAAAUCCAUAUGACCUUGAUGCUUGGAGCAUUCUCAUUCGAGAGGCACAGAAUCAACCUACCGACAAAGCACGGAAGACUUACGAACGCCUUGUUGCCCAGUUCCCCAGUUCUGGCAGA | 0.139
CACUCCCAAGGCGUCUCCUUUAGUUAAAUGGUUUCCCCAAGGUCACCUUUUUGUAAUCGCCACCGUUUGGGCUACAGGAUGAGACACUAUCUCCACAAACAAGGAAGCCAAUACUCUUAA | 0.325
GGAUAUUCUAAAAUUCAGAUUUACUUAACUGAUCCAGACUUUAAGGGUUUUAUACGAAUCCGCUGUUGCCAAUACUGUAAGGUAGAAUUUCAUAUGAACUGCUGGAAAAAGUUAAAAACA | 0.21
CAUCUGUUUUUUAAAUUACAUUUUUGUUUAUGUUCUUGAGCUGAUGUAGUGGAACUUGCCCCGCACAUUCAGGUCCCAGCCAGUUGGCAGAGCAUGCUCUCAUCUCCUUAUUCCAUACCC | 0.501
UUCUCUUCUUCCGUGGUAGGAAGCCUCCCCAUGUACUCAUGCCUCGAGCUGUUUCUAAGCCCGCUGACUGCUGCACUGCUGUGAGCAGUAUCUUAACCCUCCUCUUUGCCAGGGGAGAAU | 0.321

A few entries again (study 4):
Change | relative binding score
Q2M | 86.2%
N85C | 87%
T119R | 5.98%
Y53S | 10.9%
